# Results pooled from the literature.
# Every numbered part comes from another study and shows a few of its results, in no order. Substitutions count along the parent as printed.

# Series 1 — target: vanadate, free oxyanion; technique: microfluidic competitive inhibition; matrix: in vitro, cell-free expressed; concentration: not given; reading: lower = stronger binding
# Notes: derived from inhibition constants, unchanged parent 676 nM
# Starting sequence: PafA, mature enzyme, eGFP fusion (Elizabethkingia meningoseptica, UniProt Q9KJX5); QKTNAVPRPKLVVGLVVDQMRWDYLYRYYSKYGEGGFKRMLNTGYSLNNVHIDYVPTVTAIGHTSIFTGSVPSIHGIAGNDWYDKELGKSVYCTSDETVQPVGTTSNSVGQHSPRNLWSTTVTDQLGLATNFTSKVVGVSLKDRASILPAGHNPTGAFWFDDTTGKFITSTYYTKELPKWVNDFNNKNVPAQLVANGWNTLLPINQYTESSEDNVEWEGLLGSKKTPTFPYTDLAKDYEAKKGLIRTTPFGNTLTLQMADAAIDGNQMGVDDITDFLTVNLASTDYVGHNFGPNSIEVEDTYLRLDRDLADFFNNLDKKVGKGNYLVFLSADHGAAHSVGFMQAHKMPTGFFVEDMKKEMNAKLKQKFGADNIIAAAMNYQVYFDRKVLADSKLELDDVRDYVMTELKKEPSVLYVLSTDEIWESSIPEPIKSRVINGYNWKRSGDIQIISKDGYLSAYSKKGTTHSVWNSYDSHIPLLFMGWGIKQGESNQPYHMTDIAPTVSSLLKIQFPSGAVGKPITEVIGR
Change,oxyanion analog dissociation constant
K518G,524 nM
V109G,700 nM
L11V,682 nM
A336G,525 nM
G454A,629 nM
G517A,657 nM
A282V,23.9 µM
D161V,550 nM
L234G,766 nM
L281G,1.62 µM

# Series 2 — target: CCNA2, cyclin fold, Cln2 fusion (human); technique: yeast growth competition, sequencing; matrix: yeast; notes: strong parent motif; reference: not given; reading: higher = stronger binding
# Starting sequence: viral docking peptide; YKVKRRLVFGADD; partner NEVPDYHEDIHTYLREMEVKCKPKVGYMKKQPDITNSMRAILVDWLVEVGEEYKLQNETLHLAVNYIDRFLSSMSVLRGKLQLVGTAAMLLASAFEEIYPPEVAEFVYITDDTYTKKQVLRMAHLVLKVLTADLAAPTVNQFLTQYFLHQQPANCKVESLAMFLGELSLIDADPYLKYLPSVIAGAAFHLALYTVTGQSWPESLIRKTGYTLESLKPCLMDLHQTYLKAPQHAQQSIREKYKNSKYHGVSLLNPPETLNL
Change,normalised enrichment score
YRVKRRLVFGADD [K2R],6.49
YDVKRRLVFGADD [K2D],5.75
YKVKRRLVFGAND [D12N],6.47
YKVKNRLVFGADD [R5N],1.08
YKVKRRLEFGADD [V8E],6.49
YKVKRRHVFGADD [L7H],0.217
YIVKRRLVFGADD [K2I],5.75
YKVKVRLVFGADD [R5V],4.54
YKVKRKLVFGADD [R6K],6.36
YKVKPRLVFGADD [R5P],0.255
YKVWRRLVFGADD [K4W],3.56
YKEKRRLVFGADD [V3E],0.796
YKCKRRLVFGADD [V3C],5.74
YKVHRRLVFGADD [K4H],5.87
YKVKRRRVFGADD [L7R],0.545
YKKKRRLVFGADD [V3K],3
YAVKRRLVFGADD [K2A],5.98
YKVKRRLVFQADD [G10Q],6.2
YHVKRRLVFGADD [K2H],6.56

# Series 3 — read-out: phage display binding; technique: phage display panning NGS; form: peptide; notes: panning round 3; reference: OGT-panned over input library
# Target: UDP-N-acetylglucosamine--peptide N-acetylglucosaminyltransferase 110 kDa subunit (OGT, Homo sapiens, UniProt O15294)
# Sequence of UniProt O15294 (whole entry, looked up): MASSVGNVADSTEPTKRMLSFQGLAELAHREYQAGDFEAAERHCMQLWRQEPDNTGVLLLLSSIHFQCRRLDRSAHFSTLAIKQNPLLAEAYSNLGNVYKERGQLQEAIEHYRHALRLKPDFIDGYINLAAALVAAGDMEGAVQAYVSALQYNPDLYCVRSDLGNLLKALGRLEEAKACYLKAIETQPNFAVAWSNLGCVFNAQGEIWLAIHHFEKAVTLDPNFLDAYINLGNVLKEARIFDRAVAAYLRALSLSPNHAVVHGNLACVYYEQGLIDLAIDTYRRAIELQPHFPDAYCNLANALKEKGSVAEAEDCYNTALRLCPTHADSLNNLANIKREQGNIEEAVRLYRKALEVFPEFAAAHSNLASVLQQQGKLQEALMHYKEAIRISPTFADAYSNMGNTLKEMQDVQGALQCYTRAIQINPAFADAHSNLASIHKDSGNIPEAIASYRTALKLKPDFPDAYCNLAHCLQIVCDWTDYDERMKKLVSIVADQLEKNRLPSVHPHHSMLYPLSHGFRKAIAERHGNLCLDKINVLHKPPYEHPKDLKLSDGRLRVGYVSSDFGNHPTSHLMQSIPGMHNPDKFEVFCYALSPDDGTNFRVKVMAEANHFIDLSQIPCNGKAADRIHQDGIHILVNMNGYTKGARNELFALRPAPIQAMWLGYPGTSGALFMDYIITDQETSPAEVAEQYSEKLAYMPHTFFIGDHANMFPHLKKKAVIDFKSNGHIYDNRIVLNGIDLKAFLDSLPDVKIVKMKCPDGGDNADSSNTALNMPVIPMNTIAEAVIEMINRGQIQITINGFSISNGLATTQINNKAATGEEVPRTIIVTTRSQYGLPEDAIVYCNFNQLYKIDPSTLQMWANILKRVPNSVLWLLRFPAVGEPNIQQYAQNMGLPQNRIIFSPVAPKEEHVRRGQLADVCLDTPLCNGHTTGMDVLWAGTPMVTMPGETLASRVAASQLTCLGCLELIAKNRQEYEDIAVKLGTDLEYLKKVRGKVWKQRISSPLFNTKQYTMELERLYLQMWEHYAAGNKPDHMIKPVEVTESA
Molecule,fold enrichment
NFLPFYAIQTFNNAT,2.78
YIERTSVMPQYQITY,2.75
QYVPYYQIEVNSQPY,1.74
VEQSSPFAPQYQIQM,5.13
VERWFPPKYQMPIQG,2.68
EQHFPPAYLITYKSR,3.86

# Series 4 — technique: RNA Bind-n-Seq; form: RNA; matrix: in vitro; concentration: 20 nM; notes: 6-mer, flanks averaged, single round; added: 150 mM LiCl; reference: input library; reading: higher = stronger binding
# Target: TAR DNA-binding protein 43, full length, His tag (TARDBP, Homo sapiens, UniProt Q13148, residues 1-414)
Strand,6-mer enrichment (R)
ACAUCA,0.827
CGCCAG,0.895
ACGAAC,0.813
GCUGAU,0.927
CCUCUA,0.924
CCGAAG,0.855
AAUUUU,1.22
UAGCAA,0.862

# Excerpt of the above (series 2):
Change,normalised enrichment score
YKVKRRLEFGADD [V8E],6.49
YAVKRRLVFGADD [K2A],5.98
YKKKRRLVFGADD [V3K],3
YKVKRKLVFGADD [R6K],6.36
